# Experimental data collected from several papers.
# Numbered parts are unrelated; each lists some results of a single study.

# Study 1
# Target: Phosphate system positive regulatory protein PHO4, full length, GST-tagged (PHO4, Saccharomyces cerevisiae, UniProt P07270, residues 1-312)
# Method: competition protein-binding microarray
# Molecule type: double-stranded DNA, one strand shown
# Sample: in vitro
# Tested at: 2 µM
# Setting: whole 60-bp probe, lowest competitor level
# Together with: Cbf1 competitor, 0.05 µM
# Direction: higher = stronger binding
# Constant ends, left off below: … GTCTTGATTCGCTTGACGCTGCTG
# Residues (chain): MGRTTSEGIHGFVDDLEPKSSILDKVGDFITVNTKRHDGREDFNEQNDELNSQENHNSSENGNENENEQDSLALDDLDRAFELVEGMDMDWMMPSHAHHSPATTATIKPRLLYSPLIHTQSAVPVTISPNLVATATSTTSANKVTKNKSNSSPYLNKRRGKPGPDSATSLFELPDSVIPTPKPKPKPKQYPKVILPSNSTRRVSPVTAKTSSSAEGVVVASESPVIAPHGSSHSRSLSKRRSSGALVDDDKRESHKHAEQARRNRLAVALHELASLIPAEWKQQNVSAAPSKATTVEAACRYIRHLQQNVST
Sequence,fluorescence intensity [a.u.]
CGTCCTAGCGATTGATGTGTGGGTGCCATGAGGAAG,8110
GCATTTGGTGAGATACACGTGCCAGTTGATAAGTAC,19200
GCCAGATAGACCACTGTCGTGCTTTGTTAAGTACAG,6870
TACCACCACCAAGAGAATGTGTGAGCTGGAAACCTT,4960
CTTCTGTAAATTTGGATAGTGGGTGGACGCGCCCCG,4150
AATTACTGGTTCACACTCGTGGGTACCAAACGATTC,10400
CGGGGTTAAGTTTGGCCCGTGGGTGGCTTGCAGCAG,9180
CTGAATTCTTTAAAGAGTGTGACAGTGTCTTTTCCG,4290
ATAAGTTTCCCTGGTTACGTGTTGAAGCAGACCGCA,4600
CGGGGTTAAGTTTGATCAGTGGGTGGCTTGCAGCAG,4230
CGGGGTTAAGTTTGTATCGTGGGTGGCTTGCAGCAG,7420
CAAAAACAGCCTCCTCACGTGCCAGCATCTGTCTTG,16400
AGTTGGTACCTTTTCACCGTGAGTATCGAACTTGAA,3410
TGTTTCAAGTCTTCCGACATGACAGCGTAGTTATGG,3800
CAGCATTGCTACAGACACGTGAGTAATGCATTGTGT,14900
ACCCCAGCCGCCGGGTTCGTGCCAGTCTGGTAAGCC,5840
CGGGGTTAAGTTTTTCACGTGGCCTGCTTGCAGCAG,13100
CTTTCCCGATCTTTTCACGTGGCATTAGCACATTTG,15100
TCTTTCTTTCACCATCACGTCTTGGTCTGTAACAAG,4950
AAATTACTAAGTTGTTACGTGGGTGACGCCGTATGA,5750
TTATTTATAAAAGGACACGGGAGGGGGAATCCCGTC,5200
TGAGCGCTGAAGAAACACATGACGACTTGAAAAAAG,7290
TGGACATTTAAAGTAACAGTTAATTGAGAATACGGT,3550
AAAGCGGTAATTTGCTCAGTGGGTGCAGATATCTAT,3920
CGCCTTCTAATGGACATTCTTCTCAAACTCTACAAA,3090

# Study 2
# Target: RNA binding protein fox-1 homolog 2, RRM domain, GST-SBP tag (RBFOX2, Homo sapiens, UniProt O43251-10, residues 100-194)
# Method: RNA Bind-n-Seq
# Molecule type: RNA
# Sample: in vitro
# Tested at: 365 nM
# Setting: natural RNA segment, single round, ends assumed
# Relative to: no-protein control
# Direction: higher = stronger binding
# Constant ends, left off below: GGGAGUUCUACAGUCCGACGAUC … UGGAAUUCUCGGGUGCCAA
# Construct (chain): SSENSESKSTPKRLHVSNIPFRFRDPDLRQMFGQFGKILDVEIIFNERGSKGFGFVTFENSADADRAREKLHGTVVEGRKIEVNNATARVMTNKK
Sequence,RBNS enrichment (R)
CCUCACAUCCACCCUCCGCCCUUCCAAUUGCGCUCCCGGUUUGCAGUAAGGAAGAGGGAAGCUGAAGAAGAGGAACCUCCCCUGCCUGCCCCUGAAGCCUGGAUCAUUCG,1.16
GGCUCAGAUGGACACAGAAUUCUAGCUUUACCUGCAUCCGCUGAUUCAGUUUUCUGUUGGGAUCAGAGUGAGGAUACUUCCAUAUGGGUGAUAGCAGCCAUGCCCCUGGG,0.556
UCCUUGGAGUCCUGUUCUUGCUCACGCCUUGUGGCUAUUUUGCCCUCAGAGUGCCCUGUAUCCUACAUUUGUACAUGUAAGUAAGAGUGGCUUCCUGUCUCUCAGGUGCA,1.04
GUGGUAUAUCUGUCCCUAUUAAAUAAGUGUUGUUUUCUCCUCUUUAAUAUUGCUGUGAACAGUGGUGCCCAUUGUAGCAUAUGUUUGAUUUUUUUUUAUUAUUUCAUAAG,0.86
UUUUGCAGAGGAACCUGCCAGAGAUUUAUUGGCUGGUCAGUCUCUUGUGAAAUAGUAUCAUGUGAGAAACAGUUUGUAGAAAAAAACUAUACCUGGGAAGACCUUUGCAA,0.584
AUCUUUGUUUCCCUCACACUUAGAGCCACUAAGUCUGCAGUUCUUUUUGAAUGUGAAACACAUCUGUGCUCCUCUUGUCUAUUUUUUCUCUUCAUGUUUUAACAAAAAAG,0.563
CUGGUGAUUCUCCAUGCCUGUCCUUACCCCGGAUCUGGCUAUUCCCGUGAUGCCAUUUGGAGGGGAGAGGUCUGCUUCCCACUGUGACCAGGCUAUGGGAUCCUUGGCCA,0.834
UGUAUAGUAAAUCUAAGUCUUGAUUUUUAACUUUCUAUUGUAAAAAAUAAUAAUAUACAGAGUUUAAUAGAAGGUGAUGUUUUGGUUUUGUUUUCCCAGAGGCUGCCAUA,1.09
ACACCCUUUGUAUUUGACCUCUUCCCAGUUCCUGCCCUGUUUCUGUAUCUUUACUUGAAAGUUGGGAGUCCUUGUUUAAUUUAGGUCUGUCUUCUUGUGUGACUGUUUCU,0.36
CUUUCCUUUAUUUUUUCUUCUGAAUAAAUAGAAAACCAACAGUUUGAUUUCCUUUUCCCUUAAAGGAAACAACUAAUACACAUUCUUAUAUGGCUUUAUGUAGUAAUAGU,1.01
AGGAGUUUGGGAUUUUGGCAAAGACCAAAUACUUUCAAAUGUUGAAGAUGCAUGCGAUGAAUACCAACAAUAUCACUGAGCUAGUGAACUAUUUGGCAAAUGACUUAAGG,17.5
GCUGUCAGCUGGACCUGGUGGCUUGUGGUUGAUGGUCACUAUUAGUGGGUGAGUGGGGAUGACCUGGCUUCCAAGAGGACUGUCACUGUGGACACCAAAAUGGCUUAACU,0.931

# Study 3
# Target: Fragile X messenger ribonucleoprotein 1, C-terminal low-complexity region (Fmr1, Mus musculus, UniProt P35922)
# Method: RNA Bind-n-Seq
# Molecule type: RNA
# Sample: in vitro
# Tested at: 200 nM
# Setting: whole 134-nt RNA, ends assumed
# Together with: 150 mM LiCl
# Relative to: input library
# Direction: higher = stronger binding
# All molecules: 7-deaza-guanosine replaces G
# Constant ends, left off below: GGGAGUUCUACAGUCCGACGAUC … UGGAAUUCUCGGGUGUCAAGG
Sequence,log2 enrichment
GUGGACAACGCGUACUGGCUGUGGACUUUCCAGGGACGCCUCCUGCAGAAGAACAACAAGGACCGCUUCUGCCAGCUGCUGUGGCGGCCC,-2.32
CUCAAGUCCUGUGCUACACAUCGUAUGUACCGAAUCGGUUGGUUGGGGUUGGGAAAGUAUUAUGUUACGCCGUUCGGAUCUGCACUUCCA,0.156
CUCAAGUCCUGUGCUACACAUCGUAUGUACCGAAUCGGAGGUUUUUGGAAAGGAAAGUAUUAUGUUACGCCGUUCGGAUCUGCACUUCCA,-0.525
UUUCUAGGGAAGGUGCUUCUGGAAAAGUUGCUGAGGUCUUGUCCUAAGGUGAAUUCAGUAUAUGUUUUGGUGAGGCAGAAAGCUGGACAG,-2.62
CAAGUCCUGUGCUACACAUCGUAUGUACCGAAUCGGGUUUGGGUUUGGUUUGGGGAAAGUAUUAUGUUACGCCGUUCGGAUCUGCACUUC,-0.908
GCAGGAAGUAAAAACAAAUGGAAAUGCUUCGGAUAGUGGCAGGGGUGGGGGUUGCUAAGGAAAGGGUGGGAUGGGAGUGGGUAAAGCGUU,1.57
CUCAAGUCCUGUGCUACACAUCGUAUGUACCGAAUCGGGCCGGCCGGCCGGGGAAAGUAUUAUGUUACGCCGUUCGGAUCUGCACUUCCA,0.968
UCCUGUGCUACACAUCGUAUGUACCGAAUCGGGUUUUUGGGGUUUUUGGGGUUUUUGGGAAAGUAUUAUGUUACGCCGUUCGGAUCUGCA,0.39
AAGUCCUGUGCUACACAUCGUAUGUACCGAAUCGGUGGAAAAAAAGGUUUUUUUGGAAAGUAUUAUGUUACGCCGUUCGGAUCUGCACUU,-2.85
AAGUCCUGUGCUACACAUCGUAUGUACCGAAUCGGGGUGGGGUUUGGGGUUUGGGGAAAGUAUUAUGUUACGCCGUUCGGAUCUGCACUU,-1.36
UUUCACUUCCAGCCAGCUGUGAAGAAGGUGAGCUUGCCUUCCAUCUUCCCCCCUAUCCGCCGCGUAUCUCCGUCGUCUGCAAGCGCGUGA,1.05

# Study 4
# Target: Histone acetyltransferase KAT6A, winged helix 2, GST fusion (KAT6A, Homo sapiens, UniProt Q92794, residues 85-181)
# Method: protein binding microarray
# Molecule type: double-stranded DNA, one strand shown
# Sample: in vitro
# Tested at: not given
# Setting: 8-mer, flanks averaged, mean of 2 arrays, mostly near background
# Relative to: not given
# Direction: higher = stronger binding
# Target sequence (chain): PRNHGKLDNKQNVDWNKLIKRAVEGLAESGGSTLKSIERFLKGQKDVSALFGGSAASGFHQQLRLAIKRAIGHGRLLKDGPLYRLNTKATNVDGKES
Sequence,E-score
CACCCGGC,0.0789
TAGGTGAA,-0.0717
CACGTGCA,-0.136
AAAGAAGC,0.0484
AAAAAGTC,-0.0105
AGGGCCCG,0.0396
AGTAGCAT,0.173
CGCCGGCC,0.17
GAATACGA,0.0731
AGTGACTA,-0.0269
AAGAATAA,-0.0592
AGGACAAC,0.0177
ATAGAGGA,-0.1
ATTGGTTC,0.0869
TATATTAA,0.107
ATGTGCCG,-0.0285
CTCAAGCA,-0.00249
ATAAGCCG,0.000995
GCCTCTGA,-0.0272
AAGTTGAT,-0.106
TAAATCAA,0.0758
TATCCAGA,0.0401
GATCAGGC,-0.0546
GGGCTGAC,0.0425
CGCCGTCC,0.162

# Excerpt of the above (study 4):
Sequence,E-score
AAAGAAGC,0.0484
AAAAAGTC,-0.0105
AGGGCCCG,0.0396
AGTAGCAT,0.173
CGCCGGCC,0.17
GAATACGA,0.0731
AGTGACTA,-0.0269
AAGAATAA,-0.0592
AGGACAAC,0.0177
ATAGAGGA,-0.1
